Experimental data of several laboratories.
Protocols differ between the studies behind these lines. ± marks the error that the study gave. In brackets after ≈: the same amount, converted by molar mass.

CCCCCCCC(=O)OC[C@H](NC(=O)[C@H](CO)NC(=O)CN)C(=O)N[C@@H](Cc1ccccc1)C(=O)N[C@@H](CC(C)C)C(=O)N[C@@H](CO)C(=O)N1CCC[C@H]1C(=O)N[C@@H](CCC(=O)O)C(=O)N[C@@H](Cc1cnc[nH]1)C(=O)N[C@@H](CCC(N)=O)C(=O)N[C@@H](CCCNC(=N)N)C(=O)N[C@H](C(=O)N[C@@H](CCC(N)=O)C(=O)N[C@@H](CCC(N)=O)C(=O)N[C@@H](CCCNC(=N)N)C(=O)N[C@@H](CCCCN)C(=O)N[C@@H](CCC(=O)O)C(=O)N[C@@H](CO)C(=O)N[C@@H](CCCCN)C(=O)N[C@@H](CCCCN)C(=O)N1CCC[C@H]1C(=O)N1CCC[C@H]1C(=O)N[C@@H](C)C(=O)N[C@@H](CCCCN)C(=O)N[C@@H](CC(C)C)C(=O)N[C@@H](CCC(N)=O)C(=O)N1CCC[C@H]1C(=O)N[C@@H](CCCNC(=N)N)C(=O)O)C(C)C
mean residence time (human, both sexes, plasma; intravenous infusion, 5 µg/kg/h, 65 min infusion): 0.75 ± 0.0333 h

N=C(N)NCc1ccc(C(=O)NCCCC[C@H](NC(=O)CCCCCCC(=O)NCCCC[C@H](NC(=O)N[C@@H](CCC(=O)O)C(=O)O)C(=O)O)C(=O)O)cc1[211At]
tissue uptake (SCID mouse, PC-3 xenografts, brain; 2 h): 0.08 ± 0.02 %ID/g

CC[C@H](C)[C@H](NC(=O)[C@H](CCCCN)NC(=O)[C@H](CCCCN)NC(=O)[C@H](Cc1ccccc1)NC(=O)[C@H](CC(C)C)NC(=O)[C@@H](CCCCN)NC(=O)[C@H](Cc1c[nH]c2ccccc12)NC(=O)[C@H](CCCCN)NC(C)=O)C(=O)NCC(=O)N[C@@H](C)C(=O)N[C@H](C(=O)N[C@@H](CC(C)C)C(=O)N[C@@H](CCCCN)C(=O)N[C@H](CCCCN)C(=O)N[C@@H](CC(C)C)C(N)=O)C(C)C
hemolysis (human red blood cells; up to 64 µM, 1 h, 5% red blood cells): < 5%

N=C(N)NCc1ccc(C(=O)NCCCC[C@H](NC(=O)N[C@@H](CCC(=O)O)C(=O)O)C(=O)O)cc1[211At]
tissue uptake (SCID mouse, PC-3 xenografts, brain; 2 h): 0.1 ± 0.03 %ID/g

O=C(c1ccc(F)cc1)C1CCN(C2Cc3c(cccc3OCC[18F])CC2O)CC1 (single isomer, unassigned; (-))
tissue uptake (Sprague-Dawley rat, male, striatum; 5 min post-injection): 0.782 %ID/g

C=C1C(=O)OC2CC(C)C3C=CC(=O)C3(C)C(O[Si](C)(C)C)C12 (centres unmarked)
CC50 (propidium iodide flow cytometry; primary splenocytes, BALB/c mouse; 48 h, 10% fetal calf serum): 0.12 ± 0.1 mg/L (≈ 0.359 µM)

CSCC[C@@H]1NC(=O)[C@@H]2CSSC[C@H](NC(=O)[C@H](CO)NC(=O)[C@H](C)N)C(=O)N[C@@H](CCCNC(=N)N)C(=O)N[C@@H]([C@@H](C)O)C(=O)N3CCC[C@H]3C(=O)N[C@@H](CCCCN)C(=O)N[C@@H](CC(=O)O)C(=O)N[C@H]3CSSC[C@H](NC(=O)[C@H](CCCCN)NC(=O)[C@H](CCCNC(=N)N)NC(=O)[C@H](CC(N)=O)NC1=O)C(=O)N[C@@H](CCCCN)C(=O)N[C@H]1CSSC[C@H](NC(=O)[C@@H]4CCCN4C(=O)[C@H](CC(=O)O)NC(=O)[C@H](C)NC3=O)C(=O)N[C@@H](C)C(=O)N[C@@H](CCCCN)C(=O)N[C@@H](CCC(=O)O)C(=O)N[C@@H]([C@@H](C)O)C(=O)NCC(=O)N[C@@H](CSSC[C@@H](C(N)=O)NC(=O)[C@H](CCCNC(=N)N)NC(=O)[C@H](CC(N)=O)NC1=O)C(=O)N1CCC[C@H]1C(=O)N[C@@H](Cc1ccc(O)cc1)C(=O)NCC(=O)N[C@@H](CCCCN)C(=O)N2
Creatinine (DA rat pristane-induced arthritis, serum; subcutaneous, 0.1 mg/kg once weekly, 21 days): 0.2 mg/dL

CCNc1cc2[o+]c3cc(NCC)c(C)cc3c(-c3ccccc3C(=O)OCCOCC[18F])c2cc1C
tissue uptake (rat, skin; 60 min): 0.15 ± 0.04 %ID/g

C=Cc1cc(O)cc2nc(-c3ccc(O)c([76Br])c3)oc12
tissue uptake (female C57BL/6 mouse, lung; 6 h, high dose): 0.08 ± 0.01 %ID/g

COc1ccc(NC(=O)Cn2c(=O)c3ccccc3n(CC(=O)Nc3cc([125I])c(OC)cc3OC)c2=O)cc1
tracer uptake (rat, pancreas; intravenous, 5 min): 0.4 %ID/g

CN(C)C(CNC(=O)Nc1cc(C(F)(F)F)ccc1N1CCOCC1)c1ccncc1 (centres unmarked)
serum total CO2 (mouse, serum; intraperitoneal, 180 mg/kg single dose): 21 mmol/L

CC1(C)C(=CC=CC=CC2=[N+](CCCCN=[N+]=[N-])c3ccc(S(=O)(=O)[O-])cc3C2(C)C)N(CCCCCC(=O)O)c2ccccc21
molar absorptivity reduction (PBS; concentration not given; baseline: DMSO): 13%

C[C@@H]1CC[C@H]2[C@@H](C)CO[C@@H]3O[C@@]4(C)CC[C@@H]1[C@]32OO4
half-life (rat Sprague-Dawley male, plasma; intravenous, 5 mg/kg): 0.45 ± 0.05 h

CN[C@](C)(C[18F])C(=O)O
tissue uptake (SCID mouse U87 xenograft, liver; 60 min, post injection): 4.2 ± 1.8 %ID/g

C[C@]12CC[C@H](OCC[18F])C[C@H]1CC[C@@H]1[C@@H]2CC[C@]2(C)[C@@H](c3ccc(=O)oc3)CC[C@]12O
radiochemical purity (radio-HPLC; mouse serum; 6 h, 36 °C): > 95%

CC[C@H](C)[C@@H]1NC(=O)[C@H](CCCCN)NC(=O)[C@H](CCCCN)NC(=O)[C@H](Cc2ccc(O)cc2)NC(=O)[C@H](CC(C)C)NC(=O)[C@@H]2CCCN2C(=O)CNC(=O)CNC(=O)[C@@H](N)CSSC[C@@H](C(=O)N[C@@H](CCC(=O)O)C(=O)N[C@@H](CO)C(N)=O)NC(=O)[C@H](CC(C)C)NC(=O)[C@H](CCCCN)NC(=O)[C@H](CCCCN)NC(=O)[C@H]([C@@H](C)CC)NC(=O)[C@H]([C@@H](C)CC)NC(=O)[C@H](CCCCN)NC(=O)[C@H](CCCCN)NC(=O)[C@H](Cc2ccc(O)cc2)NC(=O)[C@H](CC(C)C)NC(=O)[C@@H]2CCCN2C(=O)[C@H](C)NC(=O)CNC(=O)CNC(=O)[C@H](CO)NC(=O)CNC(=O)CNC(=O)[C@H](CO)NC(=O)[C@H](CCC(=O)O)NC(=O)[C@H](CC(C)C)NC(=O)[C@H](CC(C)C)NC(=O)[C@H](CCCCN)NC(=O)[C@H](CCCCN)NC(=O)[C@H]([C@@H](C)CC)NC1=O
HC10 (hemolysis; uninfected human erythrocytes; 1 h): 105 ± 2.9 µM

CC[C@H](C)[C@H](NC(=O)[C@H](CC(=O)O)NC(=O)[C@H](CO)NC(=O)[C@H](CCC(N)=O)NC(=O)[C@H](C)NC(=O)[C@H](CC(=O)O)NC(=O)[C@H](CCC(=O)O)NC(=O)[C@H](Cc1c[nH]cn1)NC(=O)[C@H](Cc1ccc(O)cc1)NC(=O)[C@H](C)NC(=O)[C@H](CC(=O)O)NC(=O)[C@H](CCC(=O)O)NC(=O)[C@H](Cc1c[nH]cn1)NC(=O)[C@H](Cc1ccc(O)cc1)NC(=O)[C@H](C)NC(=O)[C@H](CC(=O)O)NC(=O)[C@H](CCC(=O)O)NC(=O)[C@H](Cc1c[nH]cn1)NC(=O)[C@H](Cc1ccc(O)cc1)NC(=O)[C@H](C)NC(=O)[C@H](CC(=O)O)NC(=O)[C@H](CCC(=O)O)NC(=O)[C@H](Cc1c[nH]cn1)NC(=O)[C@H](Cc1ccc(O)cc1)NC(=O)[C@H](C)NC(=O)[C@H](CC(=O)O)NC(=O)[C@H](CCC(=O)O)NC(=O)[C@H](Cc1c[nH]cn1)NC(=O)[C@@H](N)Cc1ccc(O)cc1)C(=O)N[C@H](C(=O)N[C@@H](C)C(=O)N[C@@H](Cc1c[nH]cn1)C(=O)N[C@@H](CC(C)C)C(=O)N[C@@H](CC(C)C)C(=O)O)C(C)C
serum creatinine (normal mouse; dose not given): 0.51 ± 0.05 mg/dL

CNC(=O)c1cccc(-c2ccc(O[C@H]3O[C@H](CO)[C@@H](O)[C@H](O)[C@@H]3O)c(C)c2)c1
oral bioavailability (rat; oral, 10 mg/kg, 10% cyclodextrin): 1.4%

Cc1ccc2c(n1)c(-c1cccc(S(C)(=O)=O)c1)c(C)n2C/C(F)=C/CN
Tmax (healthy male subjects, plasma; oral capsule, dose not given, single ascending dose): 3 h

CC[C@H](C)[C@H](NC(=O)[C@H](Cc1ccccc1)NC(=O)[C@@H]1CCCN1C(=O)[C@H](CCCCN)NC(=O)[C@H](CCCCN)NC(=O)[C@H](Cc1ccccc1)NC(=O)[C@H](Cc1ccccc1)NC(=O)[C@@H](C)NC(=O)[C@@H](N)Cc1ccc(O)cc1)C(=O)N[C@@H](CC(C)C)C(=O)O
minute ventilation (anesthetized rat; intrathecal, 10 nmol/rat, 10 min): 113 ± 14 mL/min

CCN(Cc1ccccc1)C(=O)CCc1nc(CN2CCN(C(=O)Cc3ccc(OC)c(OC)c3)CC2)no1
concentration (rat, kidney; intravenous, 1 mg/kg, 1 h, single dose): < 1.8 ng/g

O=c1c2cc(Cl)ccc2sc2c(NCc3ccccc3)nc3ccccc3c12
body weight (BALB/c nude mice; i.p., 5 mg/kg): 22 ± 0.24 g

CC(C)[C@H](NC(=O)CNC(=O)[C@H](CCC(N)=O)NC(=O)[C@H](C)N)C(=O)O
subjects with moderate adverse events (human; 10 mg/kg single dose): 0%

CC(CCC(=O)NCC(=O)O)C1CCC2C3C(O)CC4CC(OC5OC(C(=O)O)C(O)C(O)C5O)CCC4(C)C3CCC12C (centres unmarked)
plasma concentration (human, SLCO1B1 c.521 C/C, plasma; fasting, geometric mean, sex-adjusted): 0.238 µg/mL

C=CCn1cnc2c(NCc3ccc(C)s3)nc(N[C@H](CC)CO)nc21
pKa1: 5.53

Cc1ccc(/C=C/C(=O)O)cc1-c1cc2c(cc1C)C(C)(C)CCC2(C)C
LDL level (Sprague-Dawley rat, male, plasma; oral, 100 mg/kg, 1 h, sesame oil vehicle): 27 ± 8 mg/dL

O=P1(NCCCl)NCCCO1 (centres unmarked)
MRT(0-inf) (rat, plasma; intravenous, 10 mg/kg CP, with: ketoconazole 10 mg/kg oral 50 min before): 4.92 ± 0.513 h

CC[C@H](C)C(=O)N1CCC(NC(=O)Nc2ccc(OC(F)(F)F)c(F)c2)CC1
subjects with extrasystoles TEAE (healthy volunteers; oral, 24 mg single dose, ventricular extrasystoles): 0%

COC(=O)C[C@](O)(CCCC(C)(C)OC(C)=O)C(=O)O[C@@H]1C(OC)=C[C@]23CCCN2CCc2cc4c(cc2[C@H]13)OCO4
tissue concentration (CD1 mouse, liver; subcutaneous, 1 mg/kg, 24 h, below quantification limit 1.00 ng/mL): not detected

Excerpt of the above:
CC[C@H](C)[C@H](NC(=O)[C@H](Cc1ccccc1)NC(=O)[C@@H]1CCCN1C(=O)[C@H](CCCCN)NC(=O)[C@H](CCCCN)NC(=O)[C@H](Cc1ccccc1)NC(=O)[C@H](Cc1ccccc1)NC(=O)[C@@H](C)NC(=O)[C@@H](N)Cc1ccc(O)cc1)C(=O)N[C@@H](CC(C)C)C(=O)O
minute ventilation (anesthetized rat; intrathecal, 10 nmol/rat, 10 min): 113 ± 14 mL/min

C[C@]12CC[C@H](OCC[18F])C[C@H]1CC[C@@H]1[C@@H]2CC[C@]2(C)[C@@H](c3ccc(=O)oc3)CC[C@]12O
radiochemical purity (radio-HPLC; mouse serum; 6 h, 36 °C): > 95%
